# Earlier results that unrelated publications cite.
# Compare with care: the assays were run in different laboratories. Numbers after ± are the reported error.
# Sequence of UniProt P27338 (whole entry, looked up): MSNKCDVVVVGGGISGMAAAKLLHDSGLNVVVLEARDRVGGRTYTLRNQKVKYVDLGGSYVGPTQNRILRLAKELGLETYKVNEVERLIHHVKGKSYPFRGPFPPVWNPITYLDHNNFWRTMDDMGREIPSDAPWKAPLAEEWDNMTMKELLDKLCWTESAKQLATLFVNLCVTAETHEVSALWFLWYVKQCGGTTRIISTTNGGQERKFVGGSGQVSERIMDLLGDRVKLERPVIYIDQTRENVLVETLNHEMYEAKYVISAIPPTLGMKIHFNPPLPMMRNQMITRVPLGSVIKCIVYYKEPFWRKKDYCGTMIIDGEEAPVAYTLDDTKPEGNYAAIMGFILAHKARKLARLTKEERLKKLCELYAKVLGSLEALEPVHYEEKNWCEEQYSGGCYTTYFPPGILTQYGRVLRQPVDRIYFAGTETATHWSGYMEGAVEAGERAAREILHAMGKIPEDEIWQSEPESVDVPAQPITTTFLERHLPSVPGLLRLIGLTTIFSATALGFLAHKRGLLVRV
# Sequence of UniProt P16050 (whole entry, looked up): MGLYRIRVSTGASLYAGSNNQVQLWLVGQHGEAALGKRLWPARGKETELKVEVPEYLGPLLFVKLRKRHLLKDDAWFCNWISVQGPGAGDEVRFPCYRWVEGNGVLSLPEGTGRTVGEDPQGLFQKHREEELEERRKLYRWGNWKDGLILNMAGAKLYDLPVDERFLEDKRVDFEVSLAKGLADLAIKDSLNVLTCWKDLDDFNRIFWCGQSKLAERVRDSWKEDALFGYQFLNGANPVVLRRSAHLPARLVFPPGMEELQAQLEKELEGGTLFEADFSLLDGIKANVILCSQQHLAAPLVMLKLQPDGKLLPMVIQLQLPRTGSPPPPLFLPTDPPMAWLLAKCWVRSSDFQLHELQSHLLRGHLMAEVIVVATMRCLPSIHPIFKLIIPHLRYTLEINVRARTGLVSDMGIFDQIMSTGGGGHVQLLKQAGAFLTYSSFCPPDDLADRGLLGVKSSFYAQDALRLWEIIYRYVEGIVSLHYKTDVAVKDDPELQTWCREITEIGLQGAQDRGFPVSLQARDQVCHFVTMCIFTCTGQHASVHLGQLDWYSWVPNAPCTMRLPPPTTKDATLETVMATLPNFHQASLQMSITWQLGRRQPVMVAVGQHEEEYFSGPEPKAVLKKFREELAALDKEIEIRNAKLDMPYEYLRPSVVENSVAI
# Sequence of UniProt P9WHE9 (whole entry, looked up): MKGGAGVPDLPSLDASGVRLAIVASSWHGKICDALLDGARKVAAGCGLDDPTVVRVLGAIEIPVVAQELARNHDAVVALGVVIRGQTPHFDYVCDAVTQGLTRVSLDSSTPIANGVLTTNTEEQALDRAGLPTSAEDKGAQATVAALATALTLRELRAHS
# Sequence of UniProt Q9UUB1 (whole entry, looked up): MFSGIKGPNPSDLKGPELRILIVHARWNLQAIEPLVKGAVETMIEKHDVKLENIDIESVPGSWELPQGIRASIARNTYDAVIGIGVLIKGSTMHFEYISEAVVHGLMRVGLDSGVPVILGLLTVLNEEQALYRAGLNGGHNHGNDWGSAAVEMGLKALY
# Sequence of UniProt P70712 (whole entry, looked up): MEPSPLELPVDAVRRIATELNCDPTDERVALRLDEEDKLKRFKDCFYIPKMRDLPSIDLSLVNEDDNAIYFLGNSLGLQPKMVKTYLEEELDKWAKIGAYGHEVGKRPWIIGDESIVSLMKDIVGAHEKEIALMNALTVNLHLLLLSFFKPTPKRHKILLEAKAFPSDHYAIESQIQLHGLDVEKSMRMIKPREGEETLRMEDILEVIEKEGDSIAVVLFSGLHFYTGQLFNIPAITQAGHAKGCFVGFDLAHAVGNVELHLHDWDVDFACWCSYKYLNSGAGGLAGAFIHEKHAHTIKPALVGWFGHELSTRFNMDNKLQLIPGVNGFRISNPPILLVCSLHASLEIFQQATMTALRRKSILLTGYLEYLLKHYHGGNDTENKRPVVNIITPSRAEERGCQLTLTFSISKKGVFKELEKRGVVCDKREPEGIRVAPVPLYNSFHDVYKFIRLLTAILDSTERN
# Sequence of UniProt P25090 (whole entry, looked up): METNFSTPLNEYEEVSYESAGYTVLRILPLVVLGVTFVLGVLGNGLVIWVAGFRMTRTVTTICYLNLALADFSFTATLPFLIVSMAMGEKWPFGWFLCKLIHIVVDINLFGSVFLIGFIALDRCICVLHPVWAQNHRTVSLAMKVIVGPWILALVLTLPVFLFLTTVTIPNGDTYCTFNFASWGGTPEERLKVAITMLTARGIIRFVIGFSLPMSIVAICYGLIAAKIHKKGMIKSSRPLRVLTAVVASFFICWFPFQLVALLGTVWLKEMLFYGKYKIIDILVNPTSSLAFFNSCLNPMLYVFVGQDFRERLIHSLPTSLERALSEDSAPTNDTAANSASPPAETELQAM
Structure (SMILES),target,test,conditions,scale,endpoint,value
C=CC(=O)N1CCC[C@@H](n2nc(-c3cccc4ccccc34)c3c(N)ncnc32)C1,"EGFR (Homo sapiens, UniProt P00533, L858R/T790M)",,,,kinact,0.31 ± 0.04 min⁻¹
OC[C@H]1O[C@@H](OCc2cn([C@H]3[C@H](O)[C@@H](O)[C@H](c4cn([C@H]5[C@H](O)[C@@H](O)[C@H](n6cc([C@@H]7O[C@H](CO)[C@@H](n8cc(CO[C@@H]9O[C@H](CO)[C@H](O)[C@H](O)[C@H]9O)nn8)[C@H](O)[C@H]7O)nn6)O[C@@H]5CO)nn4)O[C@@H]3CO)nn2)[C@H](O)[C@@H](O)[C@H]1O,"lecA (Pseudomonas aeruginosa, UniProt Q05097)",ITC,,,ΔH,-11.6 kcal/mol
CCOC(=O)C(=O)Nc1c(NC[C@H](O)[C@H](O)[C@H](O)CO)[nH]c(=O)[nH]c1=O,"ribH (Mycobacterium tuberculosis, UniProt P9WHE9)",enzyme kinetics,"pH 7.0, together with: substrate 2 fixed, 1 varied",lower = tighter substrate binding,Ks,53 ± 11 µM
C=CC(=O)N1CCC[C@@H](n2nc(-c3cn(C)c4ccccc34)c3c(N)ncnc32)C1,"EGFR (Homo sapiens, UniProt P00533)",,,,kinact/Ki,80000 ± 20000 M⁻¹ s⁻¹
CO[C@H]1O[C@H](CNS(=O)(=O)c2c(C)cc(C)cc2C)[C@@H](O)[C@H](O)[C@@H]1O,"lecB (Pseudomonas aeruginosa, UniProt Q9HYN5)","binding, ITC",,,ΔG,-7.5 kcal/mol
CCCCC[C@H](O)/C=C/C=C\C=C\C=C\[C@@H](O)[C@@H](O)CCCC(=O)O,"FPR2 (Homo sapiens, UniProt P25090)","monocyte adherence, agonist",,,effective concentration,< 1 nM
CC(C)C(=O)Nc1c(NC[C@H](O)[C@H](O)[C@H](O)CO)[nH]c(=O)[nH]c1=O,"6,7-dimethyl-8-ribityllumazine synthase (rib4, Schizosaccharomyces pombe, UniProt Q9UUB1)",enzyme kinetics,pH 7.0,lower = tighter substrate binding,Ks,1.1 ± 0.1 µM
CN1CCN(CC(=O)N2N=C3/C(=C/c4ccccc4)CCCC3C2c2ccccc2)CC1 (mixture of isomers),"ALOX15 (Homo sapiens, UniProt P16050)","enzyme activity, activator",together with: arachidonic acid,,maximal activation,85%
CCOC(=O)C(NC(=O)CN1C(=O)/C(=C/c2ccc3c(c2)OCO3)SC1=S)C(C)C (stereo not shown),α-glucosidase,enzyme activity,200 µM,,inhibition,27 ± 2.06%
CC(C)C[C@H](NC(=O)[C@H](CO)NC(=O)[C@H](C)NC(=O)[C@H](CCCNC(=N)N)NC(=O)[C@H](CCCNC(=N)N)NC(=O)[C@@H](N)CC(C)C)C(=O)NCC(=O)O,"PRKACA (Homo sapiens, UniProt P17612)",substrate,,,Km,16 µM
C[C@@H]1COCCN1c1nc(-c2cnc(N)nc2)nc2c1C[C@@H]1COCCN21,"MTOR (Homo sapiens, UniProt P42345)",,,relative to: Ki PI3Kα over Ki target,selectivity ratio,105
Nc1c(O)cccc1C(=O)C[C@H](N)C(=O)O,"Kynureninase (Rattus norvegicus, UniProt P70712)",substrate,rat enzyme,,Km,5 µM
Cc1cc2c(c(=O)o1)C=C1CCC(C(C)CNCc3ccc(O)cc3)CC1O2 (stereo not shown),ABCA1,,concentration not given,,ABCA1 expression,increased
CC(=O)c1ccc(OCc2cccc(Br)c2)cc1O,"MAOB (Homo sapiens, UniProt P27338)",,,relative to: IC50 MAO-A over IC50 MAO-B,selectivity ratio,3950
COc1ccc([C@@]23Oc4cc(OC)cc(OC)c4[C@]2(O)[C@H](O)[C@H](C(=O)N(C)C)[C@H]3c2ccccc2)cc1,DDX3X and eIF4A1,RNA clamping binding,,relative to: eIF4A1 over DDX3X affinity,selectivity ratio,≥ 30 fold
Cc1cc(C(=O)O)ccc1Sc1ccccc1N1CCNCC1,major 5-HT receptors,,concentration not given,,binding,no binding

# Excerpt of the above:
Structure (SMILES),target,test,conditions,scale,endpoint,value
Cc1cc2c(c(=O)o1)C=C1CCC(C(C)CNCc3ccc(O)cc3)CC1O2 (stereo not shown),ABCA1,,concentration not given,,ABCA1 expression,increased
CC(=O)c1ccc(OCc2cccc(Br)c2)cc1O,"MAOB (Homo sapiens, UniProt P27338)",,,relative to: IC50 MAO-A over IC50 MAO-B,selectivity ratio,3950
